Assay results pooled from the literature.
“And” joins repeats or separate records; there may be more than shown. ± marks the error that the study gave. Converted amounts (≈) assume the structure as drawn.

Compound	organism	assay	system	conditions	how to read	quantity	result
Cc1ccc(Nc2n[nH]c3nc(-c4ccc(F)cc4)nc(N)c23)cc1	Human rhinovirus 8	cytopathic effect, inhibitor	HeLa	–	–	IC50	26.3 µM
CC(C)[C@H]1NC(=O)[C@H](Cc2ccccc2)NC(=O)[C@@H](C(C)C)NC(=O)[C@@H](C)NC(=O)[C@H](CO)NC(=O)[C@@H](Cc2c[nH]c3ccccc23)NC(=O)[C@@H](CO)NC1=O	Mycolicibacterium smegmatis	–	–	–	–	MIC90	> 100 µM
Nc1ncnc2[nH]nc(Nc3ccc(F)c(F)c3)c12	Human rhinovirus 8	cytopathic effect, inhibitor	HeLa	–	–	IC50	27.1 µM
C=C[C@]1(C)C[C@@H](OC(=O)CSc2ccc(NC(=O)c3ccco3)cc2)[C@]2(C)[C@H](C)CC[C@]3(CCC(=O)[C@H]32)[C@@H](C)[C@@H]1O	Mycoplasma gallisepticum	–	infected chickens, lung	intramuscular, 70 mg/kg daily x3, 72 h	reference: 0 h	lung mycoplasma load reduction	3.35 log10 CFU/mL and 2.9 log10 CFU/mL and 4.13 log10 CFU/mL and 3.13 log10 CFU/mL and 3.74 log10 CFU/mL and 3.59 log10 CFU/mL and 3.12 log10 CFU/mL
OC(Cn1cncn1)(Cn1cc(-[c-]2cccc2)nn1)c1ccc(F)cc1F.[Cl-].[Co+3].c1cc[cH-]c1 (racemic)	Trichuris muris	Worminator	adult males and females	100 µM, day 1	–	motility inhibition	16%
CC(C)(C)NCC(SS(=O)(=O)O)c1ccccc1 (stereo not drawn)	Schistosoma mansoni	perfusion day 44	infected Swiss Webster mice	600 mg/kg single dose, 1056 h, dosed day 7 post-infection	reference: vehicle control	liver weight decrease	28%
CC[C@H](C)[C@@H]1NC(=O)[C@@H]([C@@H](C)O)NC(=O)CNC(=O)[C@H](CC(=O)O)NC(=O)CNC(=O)[C@H](CC(=O)O)NC(=O)CNC(=O)[C@H]2CCCCN2C(=O)[C@@H](NC(=O)[C@H](CC(=O)O)NC(=O)/C=C/CCCCCCCCCC(C)C)CNC(=O)[C@@H]2CCCN2C1=O	Enterococcus	broth microdilution	VRE 155, Mueller-Hinton broth, Mg2+ 10 mg/L	16 h, together with: Ca2+ 10 mM	–	MIC	2 mg/L (≈ 1.6 µM)
Cc1nc2ccc(OC(F)(F)F)cn2c1C(=O)NCc1ccc2oc(-c3ccc(OC(F)(F)F)cc3)nc2c1	Mycobacteroides abscessus	RFP fluorescence	ATCC 19977, RFP reporter	–	–	MIC90	> 50 µM
O=[N+]([O-])c1cc(Br)cc([N+](=O)[O-])c1NS(=O)(=O)c1ccc(Br)cc1	Arabidopsis thaliana wild type	–	–	50 µM	–	germination rate	~30%
Nc1nc(-c2ccccc2)nc2[nH]nc(Nc3cccc(Cl)c3)c12	Human rhinovirus 8	cytopathic effect, inhibitor	HeLa	–	–	IC50	44.6 µM
FC(F)(F)c1cccc(CNc2nc(NC3CCN(Cc4ccccc4)CC3)c3nc[nH]c3n2)c1	Cryptococcus neoformans	RNA-seq, refers to: CNAG_03821	wild type	48 µg/mL, 3 h	reference: untreated wild type	log2 fold change	0.015
COc1ccc(Nc2n[nH]c3nc(-c4ccccc4)nc(N)c23)cc1	Human rhinovirus 8	cytopathic effect, inhibitor	HeLa	–	–	IC50	11.2 µM
CC(=O)O[C@@H]1[C@@H](OC(C)=O)[C@H](Sc2sc(C(=O)c3ccc(C)cc3)c(N)c2-c2nc3ccccc3s2)OC[C@H]1OC(C)=O	human alphaherpesvirus 1	plaque reduction	–	non-toxic concentration	–	viral titre reduction	10%
CCc1nc2ccc(Cl)cn2c1C(=O)NC/C=C(\C)CC/C=C(\C)CCC=C(C)C	Mycobacteroides abscessus	RFP fluorescence	ATCC 19977, RFP reporter	–	–	MIC90	> 100 µM
CC(=O)OC[C@H]1O[C@@H](Sc2sc(C(=O)c3ccc(Cl)cc3)c(N)c2-c2nc3ccccc3s2)[C@H](OC(C)=O)[C@@H](OC(C)=O)[C@@H]1OC(C)=O	human alphaherpesvirus 1	plaque reduction	–	non-toxic concentration	–	viral titre reduction	10%
Nc1nc(-c2ccccc2)nc2[nH]nc(Nc3ccc(Cl)cc3)c12	Human rhinovirus 8	cytopathic effect, inhibitor	HeLa	–	–	IC50	3.27 µM
CCc1nc2cc(C(F)(F)F)ccn2c1C(=O)NCc1ccc2oc(-c3ccc(Cl)cc3)nc2c1	Mycobacteroides abscessus	RFP fluorescence	ATCC 19977, RFP reporter	–	–	MIC90	> 50 µM
C=C(NC(=O)c1csc(-c2nc3c(cc2O)-c2nc(cs2)C(=O)NC(C(C)O)C(=O)NC(=C(C)OC)c2nc(cs2)C(=O)NC2c4nc(cs4)C(=O)NC(COC(=O)c4c5c6c(cccc6n4O)COC(=O)C(OC4CC(C)(O)C(N(C)C)C(C)O4)C2OC5)c2nc-3cs2)n1)C(N)=O (stereo not drawn)	Enterococcus faecium	–	-9 vancomycin-intermediate, mice, systemic infection	intravenous, 2 and 8 h post-infection, survival over 7 days	–	ED50	0.98 mg/kg

Compound	organism	assay	system	conditions	how to read	quantity	result
CN(Cc1ccc(C2(C(F)(F)F)CCC2)cc1)Cc1cccc2ccccc12	Trichophyton rubrum	microbial growth, disc diffusion	ATCC28188	0.001 µg/mL, 6 days	–	inhibition zone	0 mm
C#CCO/N=C(\C(=O)N[C@@H]1C(=O)N(OS(=O)(=O)O)C1(C)C)c1nsc(N)n1	Enterobacter cloacae	agar dilution	ATCC 43560, susceptible	–	–	MIC	4 mg/L (≈ 9.56 µM)
CCc1nc2cc(Br)ccn2c1C(=O)NCc1ccc2oc(-c3ccc(OC(F)(F)F)cc3)nc2c1	Mycobacteroides abscessus	RFP fluorescence	ATCC 19977, RFP reporter	–	–	MIC90	> 25 µM
Nc1nc(-c2ccccc2)nc2[nH]nc(Nc3ccc(F)cc3F)c12	Human rhinovirus 8	cytopathic effect, inhibitor	HeLa	–	–	IC50	17.7 µM
CC1CC2(N=CCS2)C2(O)OC3CC4(C)C(CC3OC2O1)CC1OC12C4C(O)C(=O)C1(C)C(C3=CC(=O)OC3)CCC12O (stereo not drawn)	Oncopeltus fasciatus	–	–	diet, concentration not given	–	adult length	9.91 mm
OB(O)c1ccc(C(F)(F)F)s1	Staphylococcus epidermidis	–	–	100 µM, 10 h	reference: untreated	growth	23.7% and 32.5% and 69.2% and 64.1% and 46.6%
CSc1ccc(Nc2n[nH]c3nc(-c4ccccc4)nc(N)c23)cc1	Human rhinovirus 8	cytopathic effect, inhibitor	HeLa	–	–	IC50	8.9 µM
CC(C)(O/N=C(\C(=O)N[C@@H]1C(=O)N(OS(=O)(=O)O)C1(C)C)c1nsc(N)n1)C(=O)O	Enterobacter cloacae	agar dilution	CDC 1000654	–	–	MIC	> 64 mg/L
Cc1nc2ccc(C(F)(F)F)cn2c1C(=O)NCc1ccc2oc(-c3ccc(OC(F)(F)F)cc3)nc2c1	Mycobacteroides abscessus	RFP fluorescence	ATCC 19977, RFP reporter	–	–	MIC90	> 100 µM
COc1c(NC(=O)c2ccc(NC(=O)c3ccc(NC(=O)[C@H](Cc4c[nH]nn4)NC(=O)c4ccc(NC(=O)/C(C)=C/c5ccc(O)cc5)cc4)cc3)cc2)ccc(C(=O)O)c1O	Enterococcus faecium	broth microdilution	ciprofloxacin-resistant	–	–	MIC	32 mg/L (≈ 38.1 µM)
Cc1cccc2c1N(C(=O)n1ccnn1)CC2	Oryza sativa	–	–	concentration not given	–	plant height	21.4 cm and 20.8 cm and 21.9 cm and 21.5 cm and 20.6 cm and 23.2 cm and 22.8 cm and 22.7 cm
Nc1ccn([C@@H]2O[C@H](CO)[C@@H](O)C2(F)F)c(=O)n1	human alphaherpesvirus 1	viral replication	K26 GFP-expressing, 3D neonatal skin, air-liquid interface	48 h	–	IC50	0.17 ± 0.13 µM
CCc1nc2ccc(Cl)cn2c1C(=O)NCc1ccc2oc(-c3ccc(OC(F)(F)F)cc3)nc2c1	Mycobacteroides abscessus	RFP fluorescence	ATCC 19977, RFP reporter	–	–	MIC90	> 100 µM
Cc1ccc(-c2nc(N)c3c(Nc4ccccc4)n[nH]c3n2)cc1	Human rhinovirus 8	cytopathic effect, inhibitor	HeLa	–	–	IC50	2.78 µM
Cc1c(CN(C)C(=O)/C=C/c2cnc3c(c2)CC(N)C(=O)N3)oc2ccccc12 (stereo not drawn)	Escherichia coli	broth microdilution	AR-0114	–	–	MIC	8 mg/L (≈ 20.5 µM)
CC1(C)[C@H](NC(=O)/C(=N\OCc2c(Cl)cccc2Cl)c2nsc(N)n2)C(=O)N1OS(=O)(=O)O	Enterobacter cloacae	agar dilution	CDC 1000654	–	–	MIC	> 64 mg/L
Cc1nc2ccc(Br)cn2c1C(=O)NCc1ccc2oc(-c3ccc(OC(F)(F)F)cc3)nc2c1	Mycobacteroides abscessus	RFP fluorescence	ATCC 19977, RFP reporter	–	–	MIC90	> 50 µM
CC(=O)O[C@@H]1[C@@H](OC(C)=O)[C@H](Sc2sc(C(=O)c3ccc(Br)cc3)c(N)c2-c2nc3ccccc3s2)OC[C@@H]1OC(C)=O	human alphaherpesvirus 1	plaque reduction	–	non-toxic concentration	–	viral titre reduction	40%

For quick reference, copied from above:
Compound	organism	assay	system	conditions	how to read	quantity	result
CCc1nc2cc(C(F)(F)F)ccn2c1C(=O)NCc1ccc2oc(-c3ccc(Cl)cc3)nc2c1	Mycobacteroides abscessus	RFP fluorescence	ATCC 19977, RFP reporter	–	–	MIC90	> 50 µM
CN(Cc1ccc(C2(C(F)(F)F)CCC2)cc1)Cc1cccc2ccccc12	Trichophyton rubrum	microbial growth, disc diffusion	ATCC28188	0.001 µg/mL, 6 days	–	inhibition zone	0 mm
CSc1ccc(Nc2n[nH]c3nc(-c4ccccc4)nc(N)c23)cc1	Human rhinovirus 8	cytopathic effect, inhibitor	HeLa	–	–	IC50	8.9 µM
CCc1nc2ccc(Cl)cn2c1C(=O)NCc1ccc2oc(-c3ccc(OC(F)(F)F)cc3)nc2c1	Mycobacteroides abscessus	RFP fluorescence	ATCC 19977, RFP reporter	–	–	MIC90	> 100 µM
FC(F)(F)c1cccc(CNc2nc(NC3CCN(Cc4ccccc4)CC3)c3nc[nH]c3n2)c1	Cryptococcus neoformans	RNA-seq, refers to: CNAG_03821	wild type	48 µg/mL, 3 h	reference: untreated wild type	log2 fold change	0.015
